Experimental data gathered from unrelated publications.
Protocols differ between the studies behind these lines. Several values in a cell are separate wells, animals, samples, runs or records. ± gives the spread as reported.

SMILES	assay	system	conditions	how to read	measurement	value
CN(Cc1cc(C2CC2)on1)C(=O)c1cccc(-c2ccc(F)cc2)c1	–	human liver microsomes	2 µM, 60 min, pH 7.5, without ABT	–	remaining compound	57.6%
CC(C)(C)[Si](C)(C)Oc1ccc(COC(=O)NNc2ccccc2)cc1	–	PBS	18 h, 37 °C	relative to: initial amount	remaining fraction	0.93 and 0.96 and 0.87
CSCC[C@@H](N)C(=O)N[C@@H](CC(C)C)C(=O)N[C@@H](CCCNC(=N)N)C(=O)N[C@@H](Cc1c[nH]c2ccccc12)C(=O)N[C@@H](CO)C(=O)N[C@@H](CCCNC(=N)N)C(=O)N[C@@H](CCCCN)C(=O)N[C@@H](CCSC)C(=O)N1CCC[C@H]1C(=O)N[C@@H](CS)C(=O)N[C@H](C(=O)N[C@@H](CO)C(=O)O)C(C)C	12G5 competition, SUP-T1 cells	human plasma	20 µM, 8 h, 37 °C	–	remaining activity	34 ± 11%
CCN(CC)CC#CCNc1ccnc2cc(Cl)ccc12	–	human hepatocytes	10 µM, 30 min	relative to: time zero	remaining parent	54.6%
CC[C@H](C)[C@@H](C(=O)N[C@@H](CC(C)C)C(=O)N[C@@H](CO)C(=O)N[C@@H](CO)C(=O)N[C@H](C(=O)N[C@@H](CCC(=O)O)C(=O)N[C@H](C(=O)NCC(=O)N[C@@H](CO)C(=O)N[C@@H](CC(N)=O)C(=O)N[C@H](C(=O)N1C[C@H](O)C[C@H]1C(N)=O)[C@@H](C)O)C(C)C)[C@@H](C)O)N(C)C(=O)[C@H](C)NC(=O)CN(C)C(=O)[C@H](Cc1ccccc1)NC(=O)[C@H](CO)NC(=O)[C@H](CO)NC(=O)[C@H](CCCNC(=N)N)NC(=O)[C@H](CCC(N)=O)NC(=O)[C@H](CC(C)C)NC(=O)[C@H](Cc1ccccc1)NC(=O)[C@H](CC(=O)O)NC(=O)[C@H](C)NC(=O)[C@H](CC(C)C)NC(=O)[C@H](CCCNC(=N)N)NC(=O)[C@H](CCC(N)=O)NC(=O)[C@@H](NC(=O)[C@H](C)NC(=O)[C@@H]1CSSC[C@H](NC(=O)[C@H](CCCNC(=N)N)NC(=O)CC[C@H](NC(=O)CCCCCCCCCCCCCCCCCCC(=O)O)C(=O)O)C(=O)N[C@@H](CC(N)=O)C(=O)N[C@@H]([C@@H](C)O)C(=O)N[C@@H](C)C(=O)N[C@@H]([C@@H](C)O)C(=O)N1)[C@@H](C)O	RP-HPLC	water	7 days, pH 7.5, 40 °C	–	remaining main peak	91 area %
C=CC(=O)Nc1cc(Nc2nccc(-c3cn(C)c4ccccc34)n2)c(OC)cc1N(C)CCNC	storage stability	human plasma	270 ng/mL, 24 h, on ice, HQC level	–	remaining amount	89.1%
Cc1ccc(C(C)C)cc1.F[P-](F)(F)(F)(F)F.O=C(N=P(c1ccccc1)(c1ccccc1)c1ccccc1)c1ccccn1.[Cl-].[Ru+2]	–	DMSO-d6	1 month	–	remaining intact compound	91%
N=C(N)NCCC[C@@H]1NC(=O)[C@H](CCCNC(=N)N)NC(=O)[C@@H](CCCNC(=N)N)NC(=O)[C@@H](CCCNC(=N)N)NC(=O)[C@@H](C(c2ccccc2)c2ccccc2)NC(=O)[C@H](Cc2c[nH]c3ccccc23)NC(=O)[C@@H](C(c2ccccc2)c2ccccc2)NC1=O	LC-MS	human plasma	30 min	–	remaining peptide	~90.4%
CC[C@H](C)[C@@H](C(=O)N[C@@H](CC(C)C)C(=O)N[C@@H](CO)C(=O)N[C@@H](CO)C(=O)N[C@H](C(=O)N[C@@H](CCC(=O)O)C(=O)N[C@H](C(=O)NCC(=O)N[C@@H](CO)C(=O)N[C@@H](CO)C(=O)N[C@H](C(=O)N1C[C@H](O)C[C@H]1C(N)=O)[C@@H](C)O)C(C)C)[C@@H](C)O)N(C)C(=O)[C@H](C)NC(=O)CN(C)C(=O)[C@H](Cc1ccccc1)NC(=O)[C@H](CO)NC(=O)[C@H](CO)NC(=O)[C@H](CCCNC(=N)N)NC(=O)[C@@H](NC(=O)[C@H](CC(C)C)NC(=O)[C@H](Cc1ccccc1)NC(=O)[C@H](Cc1c[nH]cn1)NC(=O)[C@H](C)NC(=O)[C@H](CC(C)C)NC(=O)[C@H](CCCNC(=N)N)NC(=O)[C@H](CCC(=O)O)NC(=O)[C@@H](NC(=O)[C@H](C)NC(=O)[C@@H]1CSSC[C@H](NC(=O)[C@H](CCCNC(=N)N)NC(=O)CC[C@H](NC(=O)CCCCCCCCCCCCCCCCCCC(=O)O)C(=O)O)C(=O)NCC(=O)N[C@@H]([C@@H](C)O)C(=O)N[C@@H](C)C(=O)N[C@@H]([C@@H](C)O)C(=O)N1)[C@@H](C)O)[C@@H](C)O	RP-HPLC	water	7 days, pH 7.5, 40 °C	–	remaining main peak	87 area %
O=C(NC1CCC(F)(F)CC1)C(c1cncnc1)N(C(=O)C(F)Cl)c1ccc(OC(F)(F)F)cc1 (stereo not shown)	–	human liver microsomes	concentration not given, 1 h, pH 7.4	–	remaining compound	90.6%
[2H]C1([2H])CC[C@@H](C[C@@H](C#N)NC(=O)[C@@H]2[C@@H]3[C@H](CN2C(=O)[C@@H](NC(=O)C(F)F)C(C)(C)C)C3(C)C)C(=O)N1	–	mouse liver microsomes	60 min	–	remaining compound	104%
Cc1ccc(C(C)C)cc1.O=C(N=P(c1ccccc1)(c1ccccc1)c1ccccc1)c1[c-]cccc1.[Cl-].[Ru+2]	–	DMSO-d6	3 weeks	–	remaining intact compound	25%
CC[C@H](C)[C@@H](C(=O)N[C@@H](CC(C)C)C(=O)N[C@@H](CO)C(=O)N[C@@H](CO)C(=O)N[C@H](C(=O)N[C@@H](CCC(=O)O)C(=O)N[C@H](C(=O)NCC(=O)N[C@@H](CO)C(=O)N[C@@H](CC(N)=O)C(=O)N[C@H](C(=O)N1C[C@H](O)C[C@H]1C(N)=O)[C@@H](C)O)C(C)C)[C@@H](C)O)N(C)C(=O)[C@H](C)NC(=O)CN(C)C(=O)[C@H](Cc1ccccc1)NC(=O)[C@H](CO)NC(=O)[C@H](CO)NC(=O)[C@H](CCCNC(=N)N)NC(=O)[C@H](CCC(N)=O)NC(=O)[C@H](CC(C)C)NC(=O)[C@H](Cc1ccccc1)NC(=O)[C@H](CCCC(=O)O)NC(=O)[C@H](C)NC(=O)[C@H](CC(C)C)NC(=O)[C@H](CCCNC(=N)N)NC(=O)[C@H](CCC(=O)O)NC(=O)[C@@H](NC(=O)[C@H](C)NC(=O)[C@@H]1CSSC[C@H](NC(=O)[C@H](CCCNC(=N)N)NC(=O)CC[C@H](NC(=O)CCCCCCCCCCCCCCCCCCC(=O)O)C(=O)O)C(=O)NCC(=O)N[C@@H]([C@@H](C)O)C(=O)N[C@@H](C)C(=O)N[C@@H]([C@@H](C)O)C(=O)N1)[C@@H](C)O	RP-HPLC	water	7 days, pH 7.5, 40 °C	–	remaining main peak	93 area %
CC(C)(C)[C@H](NC(=O)c1ccc(Oc2ccc(C(=O)N[C@H]3CCCC[C@@H]3O)cc2)cc1)C(=O)NCCN1CCCC1	–	human liver microsomes	1 µM, 10 min, pH 7.4	–	remaining compound	93.2%
CC[C@H](C)[C@@H](C(=O)N[C@@H](CC(C)C)C(=O)N[C@@H](CO)C(=O)N[C@@H](CO)C(=O)N[C@H](C(=O)N[C@@H](CCC(=O)O)C(=O)N[C@H](C(=O)NCC(=O)N[C@@H](CO)C(=O)N[C@@H](CC(N)=O)C(=O)N[C@H](C(=O)N1C[C@H](O)C[C@H]1C(N)=O)[C@@H](C)O)C(C)C)[C@@H](C)O)N(C)C(=O)[C@H](C)NC(=O)CN(C)C(=O)[C@H](Cc1ccccc1)NC(=O)[C@H](CO)NC(=O)[C@H](CO)NC(=O)[C@H](CCCNC(=N)N)NC(=O)[C@H](CCC(N)=O)NC(=O)[C@H](CC(C)C)NC(=O)[C@H](Cc1ccccc1)NC(=O)[C@H](Cc1c[nH]cn1)NC(=O)[C@H](C)NC(=O)[C@H](CC(C)C)NC(=O)[C@H](CCCNC(=N)N)NC(=O)[C@H](CCC(=O)O)NC(=O)[C@@H](NC(=O)[C@H](C)NC(=O)[C@@H]1CSSC[C@H](NC(=O)[C@H](CCCNC(=N)N)NC(=O)CC[C@H](NC(=O)CCCCCCCCCCCCCCCCCCC(=O)O)C(=O)O)C(=O)N[C@@H](CCC(N)=O)C(=O)N[C@@H]([C@@H](C)O)C(=O)N[C@@H](C)C(=O)N[C@@H]([C@@H](C)O)C(=O)N1)[C@@H](C)O	RP-HPLC	water	7 days, pH 6.0, 40 °C	–	remaining main peak	96 area %
O=C(NC1CCC(F)(F)CC1)C(c1cncnc1)N(C(=O)C(F)Cl)c1ccc(-c2cncs2)cc1 (stereo not shown)	–	human liver microsomes	concentration not given, 0.1667 h, pH 7.4	–	remaining compound	83.3%
